Measured values from different studies.
Lines come from different studies, so protocols differ. ± marks the error that the study gave.

`COC(=O)CN(C[C@H]1O[C@@H](n2cnc3c(N)ncnc32)[C@H](O)[C@@H]1O)C1CC2CN(C(=O)Nc3ccc(NC(=O)C(C)(C)C)cc3)CC2C1` (stereo partly shown): “H3K79me2 level ratio” 1.91 (human DOT1L R231Q; inhibitor, western blot, measured: H3K79me2 over histone H3; H460 DOT1L R231Q; concentration not given; relative to: cpd over SGC0946).
For `COc1cc(C=O)ccc1O`, “lowest inhibitory concentration” read ≥ 0.1 µM (UGT (rat); 4-MU glucuronidation, inhibitor; rat kidney microsomes).
`COC1(OC)CCN(CCCN(C[C@H]2O[C@@H](n3cnc4c(N)ncnc43)[C@H](O)[C@@H]2O)C2CCN(Cc3nc4cc(NC(=O)C(C)(C)C)ccc4[nH]3)CC2)CC1`: “H3K79me2 level ratio” 1.02 (human DOT1L R231Q; inhibitor, western blot, measured: H3K79me2 over histone H3; H460 DOT1L R231Q; concentration not given; relative to: cpd over SGC0946).
With `Cc1ccc(Cn2cnc3ccc(/C=C/C(=O)NO)cc3c2=O)cc1` the IC50 was 0.36 ± 0.051 µM (histone deacetylase; enzyme activity, inhibitor; HeLa nuclear extract).
For `OC[C@H]1O[C@@H](Oc2cc3c(O)cc(O)cc3[o+]c2-c2ccc(O)c(O)c2)[C@H](O)[C@@H](O)[C@@H]1O`, the CD value was > 20 µM (NAD(P)H quinone oxidoreductase, mouse; enzyme induction, inducer; Hepa-1c1c7; concentration doubling activity).
`CN(C[C@H]1O[C@@H](n2cnc3c(N)ncnc32)[C@H](O)[C@@H]1O)C1CCN(Cc2nc3cc(NC(=O)C(C)(C)C)ccc3[nH]2)CC1` — result for “H3K79me2 level ratio”: 1.06 (human DOT1L R231Q; inhibitor, western blot, measured: H3K79me2 over histone H3; H460 DOT1L R231Q; concentration not given; relative to: cpd over SGC0946).
The steady-state inhibition of `Cn1c(=O)oc2ccc(-c3ccc(C[C@@H](C#N)NC(=O)[C@@H]4CNCCCO4)cc3)cc21` is reported as 59% (neutrophil elastase; enzyme activity, inhibitor; human, whole blood; oral, 40 mg once daily, added: zymosan).
For `O=c1ccc2ccccc2o1`, the Vmax was 27.1 ± 12.4 min⁻¹ (CYP2A6 human; 7-hydroxylation, substrate; human liver microsomes; CYP2A6 added 433 pmol/mg, ratio 1).
`C=C[C@@]1(C)CC(=O)[C@]2(O)[C@@]3(C)[C@@H](O)CCC(C)(C)[C@@H]3[C@H](O)[C@H](OC(C)=O)[C@@]2(C)O1` gave an EC50 of ~10 µM (RXFP4 (human); cAMP level, agonist; CHO-RXFP4 cells; approximate).
For `O=C(O)c1ccc(Cl)c(N2C(=O)c3ccc4c(=O)n5c6ccc([N+](=O)[O-])cc6nc5c5ccc(c3c45)C2=O)c1`, “NGF-induced TrkA phosphorylation” read “decreased” (TrkA; western blot; PC-12; 1 µM, 15 min, added: NGF 50 pM).
